{"data": "Measurements of several laboratories", "target": "Alpha-1A adrenergic receptor (ADRA1A, Homo sapiens, UniProt P35348)", "note": "“And” joins repeats or separate records; there may be more than shown. ± gives the spread as reported."}
{"SMILES": "CCc1nnc(-c2c(OC)cc(-c3cnc4cc(-c5cnn(C)c5)ccn34)cc2OC)o1", "test": "antagonist radioligand, radioligand binding", "setting": "10 µM, SafetyScreen44 alpha 1 A replicate 2", "how to read": "lower = stronger displacement", "quantity": "remaining binding", "result": "63.2%"}
{"SMILES": "Cc1cc(-c2ccc3ccccc3c2)nnc1NCCN1CCN(C)CC1", "test": "antagonist", "setting": "concentration not given", "quantity": "antagonist activity", "result": "negative"}
{"SMILES": "O=C(O)c1ccc(-c2nc(-c3ccccc3Cl)c3sccn23)cc1", "test": "radioligand binding", "setting": "10 µM, together with: WB4101", "how to read": "baseline: control", "quantity": "specific binding", "result": "88.6% and 102%"}
{"SMILES": "COc1c(O)c(Cl)c2c3c1-c1cc4c(cc1CC3N(C)CC2)OCO4 (racemic)", "test": "calcium flux, antagonist, FLIPR", "test system": "CHO-K1", "setting": "together with: norepinephrine", "quantity": "apparent Kb", "result": "1.28 µM"}
{"SMILES": "CCOC(=O)[C@](CC)(CCCSCCOCCOCCNC(=O)c1ccc(-c2c3ccc(=N)c(S(=O)(=O)O)c-3oc3c(S(=O)(=O)O)c(N)ccc23)c(C(=O)O)c1)NC(=O)c1ccc(C2CC2)c(Cc2ccc(F)cc2)n1", "test": "ligand displacement, radioligand", "setting": "10 µM", "quantity": "inhibition", "result": "0%"}
{"SMILES": "CCN(CC)C(=O)[C@@H]1C=C2c3cccc4c3c(cn4C(=O)c3ccco3)C[C@H]2N(C)C1", "test": "radioligand binding", "setting": "10 µM", "quantity": "inhibition", "result": "< 50%"}
{"SMILES": "CCN(CC)CCOc1ccc(-c2nnn(Cc3ccc(OC)cc3)c2N)cc1", "test": "radioligand binding", "test system": "HEK293", "setting": "10 µM, safety profiling", "quantity": "inhibition", "result": "19.5%"}
{"SMILES": "C[C@@H]1COCCN1c1nc(NCc2cccnc2C(F)(F)F)c2cccnc2n1", "test": "binding", "setting": "CEREP panel", "quantity": "IC50", "result": "> 100 µM"}
{"SMILES": "CCCO[C@H]1[C@H](O)[C@@H](N)[C@@H](O[C@H]2[C@H](O[C@@H]3O[C@H](CO)[C@@H](O[C@H]4O[C@@H](CN)[C@@H](O)[C@H](O)[C@H]4N)[C@H]3O)[C@@H](O)[C@H](N)C[C@@H]2N)O[C@@H]1CO", "test": "radioligand binding", "setting": "10 µM, 1% DMSO", "quantity": "specific binding", "result": "0%"}
{"SMILES": "Cc1cc(Nc2nc(C[C@@]3(C(=O)O)CCN(Cc4cccc(Cl)c4F)[C@H](C)C3)cc(C)c2F)[nH]n1", "test": "inhibitor", "setting": "10 µM", "quantity": "inhibition", "result": "-1.06%"}
{"SMILES": "CCc1cc2c3c(c1OC)-c1cc4c(cc1CC3N(C)CC2)OCO4 (racemic)", "test": "calcium flux, antagonist, FLIPR", "test system": "CHO-K1", "setting": "together with: norepinephrine", "quantity": "apparent Kb", "result": "0.275 ± 0.012 µM"}
{"SMILES": "CS(C)(=O)=Nc1ccc(-c2ccc(-c3nc4cc(O[C@@H]5CO[C@H]6[C@@H]5OC[C@H]6O)[nH]c4cc3F)cc2)cc1", "test": "calcium signal, antagonist", "setting": "10 µM", "quantity": "inhibition", "result": "38%"}
{"SMILES": "N[C@H](C(=O)N1CCCC1)C1CCN(c2nccc3c(-c4ncc(Cl)cc4Cl)cccc23)CC1", "test": "functional response, antagonist", "setting": "10 µM", "quantity": "inhibition", "result": "37%"}
{"SMILES": "Cc1ccc2oc(=O)cc(CN3CCCCC3)c2c1", "test": "intracellular Ca2+ mobilization, agonist", "test system": "COS-7", "setting": "500 µM", "how to read": "baseline: 3 µM ionomycin", "quantity": "agonist activity", "result": "6.32 ± 3.54%"}
{"SMILES": "C/C(=N\\OCCCN1CCCCC1)c1ccc(C(F)(F)F)cc1", "test": "agonist, IP-One", "setting": "10 µM", "quantity": "activation", "result": "2.43%"}
